Measurements pooled from the literature.
Each line is one published result; not all experiments were run side by side.

SMILES	assay	system	conditions	helicity [%]
CC[C@H](C)[C@H](NC(=O)[C@H](Cc1ccccc1)NC(=O)[C@H](CC(=O)O)NC(=O)[C@H](CCCCN)NC(=O)[C@H](Cc1ccccc1)NC(=O)[C@H](Cc1ccccc1)NC(=O)[C@H](CCCCN)NC(=O)[C@H](CCCN)NC(=O)[C@H](CC(C)C)NC(=O)[C@H](CCCNC(=N)N)NC(=O)[C@H](CCSC)NC(=O)[C@H](C)N)C(=O)N[C@@H](CC(C)C)C(=O)N[C@@H](CCC(N)=O)C(=O)N[C@@H](CCCNC(=N)N)C(=O)N[C@@H](CCCCN)C(=O)N[C@@H](CCCCN)C(=O)O	circular dichroism	20% TFE in PBS	200 µM, pH 7.4, 25 °C	24.9
CC[C@H](C)[C@@H]1NC(=O)[C@H](CCCCN)NC(=O)[C@H](CCCCN)NC(=O)[C@H](Cc2ccc(O)cc2)NC(=O)[C@H](CC(C)C)NC(=O)[C@@H]2CCCN2C(=O)[C@H](C)NC(=O)CNC(=O)CNC(=O)[C@H](CO)NC(=O)CNC(=O)CNC(=O)[C@H](CC(N)=O)NC(=O)[C@H](CCC(=O)O)NC(=O)[C@H](CC(C)C)NC(=O)[C@H](CC(C)C)NC(=O)[C@H](CCCCN)NC(=O)[C@H](CCCCN)NC(=O)[C@H]([C@@H](C)CC)NC(=O)[C@H]([C@@H](C)CC)NC(=O)[C@H](CCCCN)NC(=O)[C@H](CCCCN)NC(=O)[C@H](Cc2ccc(O)cc2)NC(=O)[C@H](CC(C)C)NC(=O)[C@@H]2CCCN2C(=O)[C@H](C)NC(=O)CNC(=O)CNC(=O)[C@H](CO)NC(=O)CNC(=O)CNC(=O)[C@H](CC(N)=O)NC(=O)[C@H](CCC(=O)O)NC(=O)[C@H](CC(C)C)NC(=O)[C@H](CC(C)C)NC(=O)[C@H](CCCCN)NC(=O)[C@H](CCCCN)NC(=O)[C@H]([C@@H](C)CC)NC1=O	circular dichroism	aqueous NaF phosphate buffer	50 µM, pH 7.5	17
CC[C@H](C)[C@H](NC(=O)[C@H](Cc1ccccc1)NC(=O)[C@H](CCN)NC(=O)[C@H](CCCNC(=N)N)NC(=O)[C@H](Cc1ccccc1)NC(=O)[C@H](Cc1ccccc1)NC(=O)[C@H](CCCCN)NC(=O)[C@H](CO)NC(=O)[C@H](CC(C)C)NC(=O)[C@H](CCCNC(=N)N)NC(=O)[C@H](CCSC)NC(=O)[C@H](C)N)C(=O)N[C@@H](CC(C)C)C(=O)N[C@@H](CCN)C(=O)N[C@@H](CCCNC(=N)N)C(=O)N[C@@H](CCCCN)C(=O)N[C@@H](CCCCN)C(=O)O	circular dichroism	20% TFE in PBS	200 µM, pH 7.4, 25 °C	15.1
CC(=O)N[C@@H](CCCCN)C(=O)N[C@@H](CCCCN)C(=O)N[C@@H](CCCNC(=N)N)C(=O)N[C@@H](Cc1ccc(O)cc1)C(=O)N[C@@H](CO)C(=O)N[C@@H](CCCNC(=N)N)C(=O)N[C@@H](CCC(=O)O)C(=O)N[C@]1(C)CCCC=CCCC[C@@](C)(C(=O)N[C@@H](Cc2ccccc2)C(N)=O)NC(=O)[C@H](CC(C)C)NC(=O)[C@H](CC(C)C)NC1=O	circular dichroism	solution		45
CC[C@H](C)[C@H](NC(=O)[C@H](Cc1ccccc1)NC(=O)[C@H](CC(=O)O)NC(=O)[C@@H]1CCCCNC(=O)NCCC[C@H](NC(=O)[C@H](CC(C)C)NC(=O)[C@H](CCCNC(=N)N)NC(=O)[C@H](CCSC)NC(=O)[C@H](C)N)C(=O)N[C@@H](CCCCN)C(=O)N[C@@H](Cc2ccccc2)C(=O)N[C@@H](Cc2ccccc2)C(=O)N1)C(=O)N[C@@H](CC(C)C)C(=O)N[C@@H](CCC(N)=O)C(=O)N[C@@H](CCCNC(=N)N)C(=O)N[C@@H](CCCCN)C(=O)N[C@@H](CCCCN)C(=O)O	circular dichroism	20% TFE in PBS	200 µM, pH 7.4, 25 °C	29
CC(=O)N[C@@H](CCCCN)C(=O)N[C@@H](CCCCN)C(=O)N[C@@H](CCCNC(=N)N)C(=O)N[C@@H](Cc1ccc(O)cc1)C(=O)N[C@@H](CC(=O)O)C(=O)N[C@@H](CCCNC(=N)N)C(=O)N[C@@]1(C)CCCC=CCCC[C@@](C)(C(=O)N[C@@H](Cc2ccccc2)C(=O)N[C@@H](CCC(N)=O)C(=O)N[C@@H](Cc2ccccc2)C(N)=O)NC(=O)[C@H](CC(C)C)NC(=O)[C@H](CC(C)C)NC(=O)[C@H](Cc2ccccc2)NC1=O	CD spectroscopy	sodium phosphate buffer	25 to 100 µM, pH 7.4, 25 °C	5
CC[C@H](C)[C@H](NC(=O)[C@H](Cc1ccccc1)NC(=O)[C@H](CN)NC(=O)[C@H](CCCNC(=N)N)NC(=O)[C@H](Cc1ccccc1)NC(=O)[C@H](Cc1ccccc1)NC(=O)[C@H](CCCCN)NC(=O)[C@H](CO)NC(=O)[C@H](CC(C)C)NC(=O)[C@H](CCCNC(=N)N)NC(=O)[C@H](CCSC)NC(=O)[C@H](C)N)C(=O)N[C@@H](CC(C)C)C(=O)N[C@@H](CCCCN)C(=O)N[C@@H](CCCNC(=N)N)C(=O)N[C@@H](CCCCN)C(=O)N[C@@H](CCCCN)C(=O)O	circular dichroism	20% TFE in PBS	200 µM, pH 7.4, 25 °C	14.3
CC[C@H](C)[C@H](NC(=O)CNC(=O)[C@H](Cc1c[nH]cn1)NC(=O)[C@@H](NC(=O)[C@@H](NC(=O)[C@H](CO)NC(=O)CNC(=O)[C@@H](NC(=O)[C@H](Cc1ccccc1)NC(=O)[C@H](CCCNC(=N)N)NC(=O)[C@H](CC(C)C)NC(=O)[C@@H](N)Cc1ccccc1)[C@@H](C)CC)C(C)C)[C@@H](C)CC)C(=O)NCC(=O)N[C@@H](Cc1c[nH]cn1)C(=O)N[C@@H](CC(C)C)C(=O)N[C@H](C(=O)N[C@@H](Cc1c[nH]cn1)C(=O)N[C@@H](Cc1c[nH]cn1)C(=O)N[C@H](C(=O)NCC(=O)N[C@H](C(=O)N[C@@H](C)C(=O)N[C@@H](CC(C)C)C(N)=O)C(C)C)[C@@H](C)CC)C(C)C	CD spectroscopy	50% TFE	50 µM	39.8
CC[C@H](C)[C@@H]1NC(=O)[C@H](CCCCN)NC(=O)[C@H](CCCCN)NC(=O)[C@H](Cc2ccc(O)cc2)NC(=O)[C@H](CC(C)C)NC(=O)[C@@H]2CCCN2C(=O)[C@H](C)NC(=O)CNC(=O)CNC(=O)[C@H](CO)NC(=O)CNC(=O)CNC(=O)[C@H](CO)NC(=O)[C@H](CCC(=O)O)NC(=O)[C@H](CC(C)C)NC(=O)[C@H](CC(C)C)NC(=O)[C@H](CCCCN)NC(=O)[C@H](CCCCN)NC(=O)[C@H]([C@@H](C)CC)NC(=O)[C@H]([C@@H](C)CC)NC(=O)[C@H](CCCCN)NC(=O)[C@H](CCCCN)NC(=O)[C@H](Cc2ccc(O)cc2)NC(=O)[C@H](CC(C)C)NC(=O)[C@@H]2CCCN2C(=O)[C@H](C)NC(=O)CNC(=O)[C@@H]2CSSC[C@H](NC(=O)[C@H](CC(C)C)NC(=O)[C@H](CCCCN)NC(=O)[C@H](CCCCN)NC(=O)[C@H]([C@@H](C)CC)NC1=O)C(=O)N[C@@H](CCC(=O)O)C(=O)N[C@@H](CC(N)=O)C(=O)NCC(=O)N2	circular dichroism	aqueous NaF phosphate buffer	50 µM, pH 7.5	15
CC(=O)N[C@@H](CC(C)C)C(=O)N[C@H](C(=O)N[C@@H](Cc1ccccc1)C(=O)N[C@]1(C)CCCCCCC=CCCC[C@@](C)(C(=O)N[C@@H](CO)C(=O)N[C@@H](C)C(=O)N[C@@H](C)C(N)=O)NC(=O)[C@H](CC2CCC2)NC(=O)[C@H](CCC(N)=O)NC(=O)[C@H](C)NC(=O)[C@H](Cc2c[nH]c3ccccc23)NC(=O)[C@H](Cc2ccc(O)cc2)NC(=O)[C@H](CCC(=O)O)NC1=O)[C@@H](C)O	circular dichroism	solution	25 °C	49.6
CC[C@H](C)[C@@H]1NC(=O)[C@H](CCCCN)NC(=O)[C@H](CCCCN)NC(=O)[C@H](Cc2ccc(O)cc2)NC(=O)[C@H](CC(C)C)NC(=O)[C@@H]2CCCN2C(=O)[C@H](C)NC(=O)CNC(=O)CNC(=O)[C@H](CO)NC(=O)CNC(=O)CNC(=O)[C@H](CO)NC(=O)[C@H](CCC(=O)O)NC(=O)[C@H](CC(C)C)NC(=O)[C@H](CC(C)C)NC(=O)[C@H](CCCCN)NC(=O)[C@H](CCCCN)NC(=O)[C@H]([C@@H](C)CC)NC(=O)[C@H]([C@@H](C)CC)NC(=O)[C@H](CCCCN)NC(=O)[C@H](CCCCN)NC(=O)[C@H](Cc2ccc(O)cc2)NC(=O)[C@H](CC(C)C)NC(=O)[C@@H]2CCCN2C(=O)[C@H](C)NC(=O)CNC(=O)CNC(=O)[C@H](CO)NC(=O)CNC(=O)CNC(=O)[C@H](CO)NC(=O)[C@H](CCC(=O)O)NC(=O)[C@H](CC(C)C)NC(=O)[C@H](CC(C)C)NC(=O)[C@H](CCCCN)NC(=O)[C@H](CCCCN)NC(=O)[C@H]([C@@H](C)CC)NC1=O	circular dichroism	aqueous NaF phosphate buffer	50 µM, pH 7.5	35
CC(=O)N[C@@H](CCCCN)C(=O)N[C@@H](CCCCN)C(=O)N[C@@H](CCCNC(=N)N)C(=O)N[C@@H](Cc1ccc(O)cc1)C(=O)N[C@@H](CO)C(=O)N[C@@H](CCCNC(=N)N)C(=O)N[C@@]1(C)CCCC=CCCC[C@@](C)(C(=O)N[C@@H](Cc2ccccc2)C(N)=O)NC(=O)[C@H](CC(C)C)NC(=O)[C@H](CC(C)C)NC(=O)[C@H](C)NC1=O	circular dichroism	solution		80
CC[C@H](C)[C@@H]1NC(=O)[C@H](CCCCN)NC(=O)[C@H](CCCCN)NC(=O)[C@H](Cc2ccc(O)cc2)NC(=O)[C@H](CC(C)C)NC(=O)[C@@H]2CCCN2C(=O)[C@H](C)NC(=O)CNC(=O)CNC(=O)[C@H](CO)NC(=O)CNC(=O)CNC(=O)[C@H](CO)NC(=O)[C@H](CCC(=O)O)NC(=O)[C@H](CC(C)C)NC(=O)[C@H](CC(C)C)NC(=O)[C@H](CCCCN)NC(=O)[C@H](CCCCN)NC(=O)[C@H]([C@@H](C)CC)NC(=O)[C@H]([C@@H](C)CC)NC(=O)[C@H](CCCCN)NC(=O)[C@H](CCCCN)NC(=O)[C@H](Cc2ccc(O)cc2)NC(=O)[C@H](CC(C)C)NC(=O)[C@@H]2CCCN2C(=O)[C@H](C)NC(=O)CNC(=O)[C@@H]2CSSC[C@H](NC(=O)[C@H](CC(C)C)NC(=O)[C@H](CCCCN)NC(=O)[C@H](CCCCN)NC(=O)[C@H]([C@@H](C)CC)NC1=O)C(=O)N[C@@H](CCCCN)C(=O)N[C@@H](CC(N)=O)C(=O)NCC(=O)N2	circular dichroism	aqueous NaF phosphate buffer	50 µM, pH 7.5	37
CC[C@H](C)[C@H](NC(=O)[C@H](CCCNC(=N)N)NC(=O)[C@@H](NC(=O)CNC(C)=O)[C@@H](C)O)C(=O)N[C@H](C(=O)N[C@@H](Cc1ccc(O)cc1)C(=O)N[C@@H](CC(=O)O)C(=O)N[C@@H](CCCNC(=N)N)C(=O)N[C@@]1(C)CCCC=CCCC[C@@](C)(C(=O)N[C@@H](CS)C(=O)N[C@@H](CCCNC(=N)N)C(=O)N[C@@H](CC(N)=O)C(N)=O)NC(=O)[C@H](CCSC)NC(=O)[C@H](CC(C)C)NC(=O)[C@H](Cc2ccccc2)NC1=O)[C@@H](C)CC	circular dichroism	aqueous 2,2,2-trifluoroethanol	100 µM, pH 7.4, 25 °C	83

Excerpt of the above:
SMILES	assay	system	conditions	helicity [%]
CC(=O)N[C@@H](CCCCN)C(=O)N[C@@H](CCCCN)C(=O)N[C@@H](CCCNC(=N)N)C(=O)N[C@@H](Cc1ccc(O)cc1)C(=O)N[C@@H](CC(=O)O)C(=O)N[C@@H](CCCNC(=N)N)C(=O)N[C@@]1(C)CCCC=CCCC[C@@](C)(C(=O)N[C@@H](Cc2ccccc2)C(=O)N[C@@H](CCC(N)=O)C(=O)N[C@@H](Cc2ccccc2)C(N)=O)NC(=O)[C@H](CC(C)C)NC(=O)[C@H](CC(C)C)NC(=O)[C@H](Cc2ccccc2)NC1=O	CD spectroscopy	sodium phosphate buffer	25 to 100 µM, pH 7.4, 25 °C	5
